Results from different studies.
Protocols differ between the studies behind these lines. Values joined by “and” are separate records of one study, mostly repeats; a detail may differ. ± marks the error that the study gave.
ESR1: Estrogen receptor (ESR1, Homo sapiens, UniProt P03372)
Chain of UniProt P03372 (whole entry, unmodified, looked up): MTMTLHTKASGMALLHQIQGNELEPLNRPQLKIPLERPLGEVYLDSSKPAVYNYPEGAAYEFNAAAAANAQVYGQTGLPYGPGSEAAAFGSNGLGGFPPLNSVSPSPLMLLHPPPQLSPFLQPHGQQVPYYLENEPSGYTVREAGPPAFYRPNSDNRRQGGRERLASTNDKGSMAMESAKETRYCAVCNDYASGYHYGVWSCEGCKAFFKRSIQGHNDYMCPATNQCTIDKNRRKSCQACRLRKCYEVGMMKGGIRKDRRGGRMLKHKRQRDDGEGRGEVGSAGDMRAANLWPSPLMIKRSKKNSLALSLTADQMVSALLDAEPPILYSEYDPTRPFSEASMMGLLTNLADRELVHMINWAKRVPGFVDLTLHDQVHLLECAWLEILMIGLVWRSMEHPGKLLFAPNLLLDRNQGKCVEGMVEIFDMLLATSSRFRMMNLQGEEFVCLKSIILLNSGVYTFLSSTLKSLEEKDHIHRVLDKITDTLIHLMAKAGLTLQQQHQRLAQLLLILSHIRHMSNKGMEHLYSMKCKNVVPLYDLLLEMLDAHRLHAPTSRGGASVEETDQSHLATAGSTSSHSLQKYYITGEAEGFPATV
Genome polyprotein NS3 helicase domain: Genome polyprotein, NS3 helicase domain (Hepatitis C virus genotype 1b, UniProt Q9WMX2)
Glutamate receptor 2: Glutamate receptor 2 (Homo sapiens, UniProt P42262)
CALM1 Ca2+-bound C-lobe: Calmodulin-1, Ca2+-bound C-lobe (CALM1, Homo sapiens, UniProt P0DP23)
WD repeat-containing protein 91 WD40 domain, residues 392–747: WD repeat-containing protein 91, WD40 domain, residues 392–747 (Homo sapiens, UniProt A4D1P6)
Chain of UniProt A4D1P6 (whole entry, looked up): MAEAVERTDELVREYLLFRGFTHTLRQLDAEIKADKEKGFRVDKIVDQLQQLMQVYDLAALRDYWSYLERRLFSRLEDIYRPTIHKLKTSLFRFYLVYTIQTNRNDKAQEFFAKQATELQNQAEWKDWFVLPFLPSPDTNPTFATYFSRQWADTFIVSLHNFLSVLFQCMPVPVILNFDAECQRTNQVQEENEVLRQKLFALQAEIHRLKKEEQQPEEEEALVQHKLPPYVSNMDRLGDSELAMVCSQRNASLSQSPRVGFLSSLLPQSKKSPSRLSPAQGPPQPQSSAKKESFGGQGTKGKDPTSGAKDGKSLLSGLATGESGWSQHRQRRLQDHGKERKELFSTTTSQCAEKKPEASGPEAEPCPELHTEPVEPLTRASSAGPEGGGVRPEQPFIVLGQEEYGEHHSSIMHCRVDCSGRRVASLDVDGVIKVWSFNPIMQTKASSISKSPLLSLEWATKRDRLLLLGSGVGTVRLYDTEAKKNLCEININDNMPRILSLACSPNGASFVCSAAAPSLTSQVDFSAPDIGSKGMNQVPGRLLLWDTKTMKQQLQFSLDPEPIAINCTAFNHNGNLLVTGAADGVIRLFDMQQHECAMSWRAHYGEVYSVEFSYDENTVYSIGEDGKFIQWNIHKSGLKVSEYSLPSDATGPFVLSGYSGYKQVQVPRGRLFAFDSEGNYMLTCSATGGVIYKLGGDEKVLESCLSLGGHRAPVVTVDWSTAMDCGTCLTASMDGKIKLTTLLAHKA
T1: riboswitch RNA yjdF aptamer, P2a helix from Ruminococcus (Bacillus subtilis); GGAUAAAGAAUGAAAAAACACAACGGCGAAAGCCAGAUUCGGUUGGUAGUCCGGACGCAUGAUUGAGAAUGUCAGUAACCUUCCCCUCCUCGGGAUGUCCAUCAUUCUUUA
Chain of UniProt P18669 (whole entry, looked up): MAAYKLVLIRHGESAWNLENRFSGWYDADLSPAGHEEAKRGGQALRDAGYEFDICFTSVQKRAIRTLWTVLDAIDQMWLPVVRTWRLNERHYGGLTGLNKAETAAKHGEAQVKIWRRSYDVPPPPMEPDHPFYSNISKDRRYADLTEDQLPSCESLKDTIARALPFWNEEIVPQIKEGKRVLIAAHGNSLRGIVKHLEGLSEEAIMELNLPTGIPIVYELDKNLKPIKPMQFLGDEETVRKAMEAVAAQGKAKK
Chain of UniProt P21554 (whole entry, looked up): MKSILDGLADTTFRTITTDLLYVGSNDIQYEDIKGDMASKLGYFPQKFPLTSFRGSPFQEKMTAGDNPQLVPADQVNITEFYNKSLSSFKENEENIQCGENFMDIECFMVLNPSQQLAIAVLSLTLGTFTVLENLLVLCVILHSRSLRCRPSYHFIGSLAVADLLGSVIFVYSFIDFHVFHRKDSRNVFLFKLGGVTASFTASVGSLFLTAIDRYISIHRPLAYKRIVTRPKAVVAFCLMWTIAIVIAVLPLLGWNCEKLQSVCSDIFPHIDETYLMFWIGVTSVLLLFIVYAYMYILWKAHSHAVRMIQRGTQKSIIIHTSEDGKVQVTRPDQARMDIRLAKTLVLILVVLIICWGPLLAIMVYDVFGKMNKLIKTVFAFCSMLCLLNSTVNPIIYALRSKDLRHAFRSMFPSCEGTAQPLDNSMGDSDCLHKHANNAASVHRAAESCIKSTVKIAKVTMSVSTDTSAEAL

With `CN1CCN(c2cc(-c3ccncc3)c(-c3ccc4ccccc4c3)nn2)CC1` the activation was -0.1% (Endothelin receptor type B (EDNRB, Homo sapiens, UniProt P24530); agonist, FLIPR; 12.5 µM).
With `O=C(/C=C/c1ccccc1)c1ccccc1` the selectivity ratio was 0.751 (ESR1; array formation; PRL-HeLa; reference: EC50 ERβ over EC50 ERα).
The selectivity ratio of `O=S(=O)(NC1CCN(c2ncnc3c2nc(-c2ccccc2Cl)n3-c2ccc(Cl)cc2)CC1)c1ccc(F)c(F)c1` is reported as greater than 5000 (Cannabinoid receptor 1 (CNR1, Homo sapiens, UniProt P21554); binding, [3H]CP55940 displacement; reference: Ki CB2 over Ki CB1).
With `C[C@]12CC[C@@H]3c4ccc(O)cc4C[C@@H](CCCCCCCCC[S+]([O-])CCCC(F)(F)C(F)(F)F)[C@H]3[C@@H]1CC[C@@H]2O` (stereo partly drawn) the inhibition was 0% (Genome polyprotein NS3 helicase domain; DNA binding, inhibitor; hepatitis C virus; 100 µM, added: Cy5-dT15 DNA).
With `CC(C)NCC(O)COc1cccc2ccccc12` (stereo not drawn) the potentiation was 99% (Glutamate receptor 2; ion current, positive allosteric modulator, SyncroPatch patch clamp; HEK293; 10 µM).
`NCC(=O)NCCC(c1ccccc1)c1ccccc1` has an inhibition of 0% (Genome polyprotein NS3 helicase domain; DNA binding, inhibitor; hepatitis C virus; 100 µM, added: Cy5-dT15 DNA).
`CC[C@@H]1[C@H](F)C(=O)N[C@@H]1COc1nccc2cc(C(N)=O)c(OC)cc12` gave an inhibition of -10% (Mitogen-activated protein kinase 9 (MAPK9, Homo sapiens, UniProt P45984); ATP probe binding, KiNativ profiling, item: Lys1 probe site; THP-1 cell lysate; 0.01 mM).
With `C[N+]1(CCCCC[N+]2(C)CCCC2)CCCC1.O=C([O-])C(O)C(O)C(=O)O.O=C([O-])C(O)C(O)C(=O)O` the inhibition was 4% (Genome polyprotein NS3 helicase domain; DNA binding, inhibitor; hepatitis C virus; 100 µM, added: Cy5-dT15 DNA).
The ΔG of `COc1cc(/C=C/C(=O)C(=Cc2ccc([N+](=O)[O-])cc2)C(=O)/C=C/c2ccc(O)c(OC)c2)ccc1O` is reported as -7.99 ± 0.442 kcal/mol (haemin; binding, isothermal titration calorimetry; pH 7.4, 37 °C).
`O=c1cc(-c2ccccc2)oc2cc(O)ccc12` gave a selectivity ratio of 0.839 (ESR1; array formation; PRL-HeLa; reference: EC50 ERβ over EC50 ERα).
`COc1cc(NC(=O)c2ccccn2)ccc1/N=N/c1ccccc1Cl` gave an activation of 4.89% (Metabotropic glutamate receptor 5 (GRM5, Homo sapiens, UniProt P41594); positive allosteric modulator, IP accumulation; HEK293; 30 µM, in the dark, added: low-dose orthosteric agonist).
Under “ER level reduction”, `O=C1CC[C@H](N2Cc3c(ccc4c3OCC43CCN(C[C@@H]4CCC5(CCN(c6ccc([C@@H]7c8ccc(O)cc8CC[C@@H]7c7ccccc7)cc6)CC5)OC4)CC3)C2=O)C(=O)N1` is recorded as greater than 80% (Estrogen receptor (ESR1, Homo sapiens, UniProt P03372, Y537S); degrader, western blot; MCF7 ESR1 Y537S; 10 and 100 nM, 7 h).
`C/C(=C\c1ccc(C(=O)O)cc1)c1ccc2c(c1)C(C)(C)CCC2(C)C` has an inhibition of 0% (Genome polyprotein NS3 helicase domain; DNA binding, inhibitor; hepatitis C virus; 100 µM, added: Cy5-dT15 DNA).
For `CC[C@H](C)[C@H](NC(=O)[C@H](CCSC)NC(=O)[C@H](CCSC)NC(=O)[C@H](C)NC(=O)[C@H](C)NC(=O)[C@H](Cc1ccc(O)cc1)NC(=O)[C@H](C)NC(=O)[C@H](CCCCN)NC(=O)CNC(=O)[C@@H](NC(=O)[C@@H](NC(=O)[C@H](CCSC)NC(=O)[C@H](Cc1c[nH]cn1)NC(=O)CN)[C@@H](C)O)C(C)C)C(=O)N[C@@H](CCSC)C(=O)N[C@@H](CCC(=O)O)C(=O)N[C@@H](Cc1ccc(O)cc1)C(=O)N[C@@H](Cc1ccc(O)cc1)C(=O)N[C@@H](CCCNC(=N)N)C(=O)N[C@@H](CCC(N)=O)C(=O)N[C@@H](CO)C(=O)N[C@@H](CCCCN)C(=O)N[C@@H](C)C(=O)N[C@@H](CCCCN)C(=O)N[C@@H](CCCCN)C(=O)N[C@@H](CC(C)C)C(=O)N[C@@H](CCC(N)=O)C(=O)N[C@@H](C)C(=O)N[C@@H](CCSC)C(=O)N[C@@H](CCCNC(=N)N)C(=O)O`, the stoichiometry was 0.97 ± 0.01 (CALM1 Ca2+-bound C-lobe; binding, isothermal titration calorimetry; pH 7.4, 15 °C, Ca2+-bound C-lobe, added: CaV2.1 IQ peptide).
`C[C@]12C[C@H](O)[C@H]3[C@@H](CCC4=CC(=O)CC[C@@]43C)[C@@H]1CC[C@@H]2C(=O)CO` has an inhibition of 0% (Genome polyprotein NS3 helicase domain; DNA binding, inhibitor; hepatitis C virus; 100 µM, added: Cy5-dT15 DNA).
With `O=C(c1ccc(C(=O)N2CCC(N3CCCC3)CC2)c(Nc2ccccc2)c1)N1CCC(N2CCCC2)CC1` the diffusion coefficient was 0.0507 µm2/s (Lethal(3)malignant brain tumor-like protein 3 (Homo sapiens, UniProt Q96JM7); FRAP; human cells; 0.1 µM).
For `CC[C@H](C)[C@H](NC(=O)[C@H](CCSC)NC(=O)[C@H](CCSC)NC(=O)[C@H](C)NC(=O)[C@H](C)NC(=O)[C@H](Cc1ccc(O)cc1)NC(=O)[C@@H](NC(=O)[C@H](CCCCN)NC(=O)CNC(=O)[C@@H](NC(=O)[C@@H](NC(=O)[C@H](CCSC)NC(=O)[C@H](Cc1c[nH]cn1)NC(=O)CN)[C@@H](C)O)C(C)C)[C@@H](C)CC)C(=O)N[C@@H](C)C(=O)N[C@@H](CCC(=O)O)C(=O)N[C@@H](Cc1ccc(O)cc1)C(=O)N[C@@H](Cc1ccc(O)cc1)C(=O)N[C@@H](CCCNC(=N)N)C(=O)N[C@@H](CCC(N)=O)C(=O)N[C@@H](CO)C(=O)N[C@@H](CCCCN)C(=O)N[C@@H](C)C(=O)N[C@@H](CCCCN)C(=O)N[C@@H](CCCCN)C(=O)N[C@@H](CC(C)C)C(=O)N[C@@H](CCC(N)=O)C(=O)N[C@@H](C)C(=O)N[C@@H](CCSC)C(=O)N[C@@H](CCCNC(=N)N)C(=O)O`, the ΔS was 25.9 ± 4.1 cal/mol/K (Calmodulin-1, Ca2+-bound N-lobe (CALM1, Homo sapiens, UniProt P0DP23); binding, isothermal titration calorimetry; pH 7.4, 15 °C, N-lobe, CaV2.1 IQ domain, added: Ca2+).
With `Cc1cc2nc3[nH]c(=O)[nH]c(=O)c3nc2cc1C` the Kd was 40 nM (T1, riboswitch RNA yjdF aptamer, P2a helix from Ruminococcus (Bacillus subtilis); fluorescence titration; added: 380 nM lumichrome).
`O=C(COP(=O)(O)O)[C@@H](O)[C@H](O)[C@H](O)COP(=O)(O)O` has an enzyme activity of 236% and 224% and 209% (Phosphoglycerate mutase 1 (Homo sapiens, UniProt P18669); activator, sugar phosphate screen; concentration not given; reference: untreated control).
For `Nc1c(Br)cc(Br)cc1CN[C@H]1CC[C@H](O)CC1`, the activation was 7% (Glutamate receptor 2; ion current, agonist, SyncroPatch patch clamp; HEK293; 3 µM).
For `C=CC(=O)N1CCC(COCC(=O)N2CCN(c3nc(-c4cnc(N)nc4C(F)F)nc(N4CCOC[C@@H]4C)n3)CC2)CC1`, the remaining binding was 98% (Wee1-like protein kinase (WEE1, Homo sapiens, UniProt P30291); KINOMEscan; 1 µM).
`CC1CCCN(C(=O)c2cc3ncccn3n2)C1` (stereo not drawn) has a fold enrichment of 0.749 (SPRY domain-containing SOCS box protein 2, SPRY domain (Homo sapiens, UniProt Q99619); binding, affinity selection mass spectrometry; reference: other proteins in batch).
For `CC[C@H](C)[C@@H]1NC(=O)[C@H](C)NC(=O)[C@H]([C@@H](C)CC)NC(=O)[C@H](CCC(N)=O)NC(=O)[C@H](C)NC(=O)[C@H](CCCNC(=N)N)NC(=O)[C@H](C(C)C)NC(=O)[C@H](CC(C)C)NC(=O)[C@H](CCC(=O)O)NC(=O)[C@H](CCCNC(=N)N)NC(=O)CNC(=O)[C@@H](NC(=O)[C@H](CC(C)C)NC(=O)[C@H](CCCCN)NC(=O)[C@@H](NC(=O)[C@@H](NC(=O)[C@H](CCC(=O)O)NC(=O)[C@H](CCC(=O)O)NC(=O)[C@H](CCSC)NC(=O)[C@H](Cc2c[nH]c3ccccc23)NC(=O)[C@H](CO)NC(=O)[C@@H](N)CC(=O)O)C(C)C)[C@@H](C)CC)CSSC[C@@H]2NC(=O)[C@@H](NC(=O)[C@H](CCCCN)NC(=O)[C@H](CC(N)=O)NC(=O)[C@H](C)NC(=O)[C@H](CC(C)C)NC(=O)[C@H](C)NC(=O)[C@H](CO)NC(=O)[C@H](Cc3ccc(O)cc3)NC(=O)[C@H](CC(C)C)NC(=O)[C@H](CCC(N)=O)NC(=O)c3ccc(-c4c5ccc(=[N+](C)C)cc-5oc5cc(N(C)C)ccc45)c(C(=O)[O-])c3)CSSC[C@H](NC(=O)CNC(=O)[C@H](C(C)C)NC(=O)[C@H](Cc3c[nH]cn3)NC2=O)C(=O)N[C@@H]([C@@H](C)O)C(=O)N[C@@H](CCCCN)C(=O)N[C@@H](CCCNC(=N)N)C(=O)N[C@@H](CO)C(=O)N[C@@H](CC(C)C)C(=O)N[C@@H](C)C(=O)N[C@@H](CCCNC(=N)N)C(=O)N[C@@H](Cc2ccccc2)C(=O)N[C@H](C(=O)O)CSSC[C@@H](C(=O)NCC(=O)N[C@@H](CCSC)C(=O)N[C@@H](CO)C(=O)N[C@H](C(=O)N[C@@H](Cc2c[nH]c3ccccc23)C(=O)N[C@@H](CO)C(=O)O)[C@@H](C)O)NC1=O`, “fast dissociation fraction” read 18.6% (Relaxin receptor 1 (RXFP1, Homo sapiens, UniProt Q9HBX9); binding, NanoBRET; concentration not given, added: relaxin 10 µM).
With `COc1cc(C)c(Sc2cnc(NC(=O)c3ccc(N4CCN(CCCCCCCNC(=O)COc5cccc6c5C(=O)N(C5CCC(=O)NC5=O)C6=O)CC4)cc3)s2)cc1C(=O)N1CCN(C(C)=O)CC1` (stereo not drawn) the degradation was 99.2% (Tyrosine-protein kinase ITK/TSK (ITK, Homo sapiens, UniProt Q08881); degrader; HuT78 xenograft, NSG mouse, tumour; intraperitoneal, 50 mg/kg every 8 h).
`CCN1CCC[C@H]1CNC(=O)c1c(O)c(Cl)cc(Cl)c1OC` — result for “log2 fold change”: 0.381 (Adhesion G protein-coupled receptor D2 (ADGRD2, Homo sapiens, UniProt Q7Z7M1); β-arrestin recruitment, TANGO luminescence, item: GPR144; concentration not given; reference: basal luminescence).
The inhibition of `N.N.N.Nc1ncnc2c1ncn2C1OC(COP(=O)(O)OP(=O)(O)OP(=O)(O)OP(=O)(O)OC[C@H]2O[C@@H](n3cnc4c(N)ncnc43)C(O)C2O)[C@@H](O)C1O` (stereo in doubt) is reported as 3% (Genome polyprotein NS3 helicase domain; DNA binding, inhibitor; hepatitis C virus; 100 µM, added: Cy5-dT15 DNA).
`COc1ccc(C(=O)N2CCC(C#N)CC2)cc1OC1CCN(C)CC1` gave a binding of -15% and -6% (WD repeat-containing protein 91 WD40 domain, residues 392–747; SPR; 45 µM).
`CCCCCCCCCC(=O)NC(CN1CCOCC1)[C@H](O)c1ccccc1.Cl` (mixture of isomers) gave an inhibition of 2% (Genome polyprotein NS3 helicase domain; DNA binding, inhibitor; hepatitis C virus; 100 µM, added: Cy5-dT15 DNA).
With `N#CC1CCN(C(=O)c2ccc(NC3COC3)cc2)CC1` the binding was -15% and -45% (WD repeat-containing protein 91 WD40 domain, residues 392–747; SPR; 45 µM).
With `C[C@@H](c1ccc(-n2cnc3c(N)ncnc32)cc1)N1CCc2nn(C)c(Cc3ccccc3)c2C1=O` the remaining binding was 72% (Serine/threonine-protein kinase WNK1 (WNK1, Homo sapiens, UniProt Q9H4A3); KINOMEscan; 0.1 µM; reference: DMSO control).
`CC(C)(C)OC(=O)N1CCCC(c2ccc(C(=O)N3CCC(C#N)CC3)cc2)C1` (stereo not drawn) has a binding of -9% and 11% (WD repeat-containing protein 91 WD40 domain, residues 392–747; SPR; 45 µM).
The ΔH of `CC[C@H](C)[C@H](NC(=O)[C@H](CCCCN)NC(=O)CNC(=O)[C@@H](NC(=O)[C@@H](NC(=O)[C@H](CCSC)NC(=O)[C@H](Cc1c[nH]cn1)NC(=O)CN)[C@@H](C)O)C(C)C)C(=O)N[C@@H](Cc1ccc(O)cc1)C(=O)N[C@@H](C)C(=O)N[C@@H](C)C(=O)N[C@@H](C)C(=O)N[C@@H](CCSC)C(=O)N[C@H](C(=O)N[C@@H](CCSC)C(=O)N[C@@H](CCC(=O)O)C(=O)N[C@@H](Cc1ccc(O)cc1)C(=O)N[C@@H](Cc1ccc(O)cc1)C(=O)N[C@@H](CCCNC(=N)N)C(=O)N[C@@H](CCC(N)=O)C(=O)N[C@@H](CO)C(=O)N[C@@H](CCCCN)C(=O)N[C@@H](C)C(=O)N[C@@H](CCCCN)C(=O)N[C@@H](CCCCN)C(=O)N[C@@H](CC(C)C)C(=O)N[C@@H](CCC(N)=O)C(=O)N[C@@H](C)C(=O)N[C@@H](CCSC)C(=O)N[C@@H](CCCNC(=N)N)C(=O)O)[C@@H](C)CC` is reported as -3.84 ± 0.02 kcal/mol (CALM1 Ca2+-bound C-lobe; binding, isothermal titration calorimetry; pH 7.4, 15 °C, C-lobe, CaV2.1 IQ domain, added: Ca2+).
`Cl.NO` has an inhibition of 1% (Genome polyprotein NS3 helicase domain; DNA binding, inhibitor; hepatitis C virus; 100 µM, added: Cy5-dT15 DNA).
